Experimental data from different studies.
Several values in a cell are separate wells, animals, samples, runs or records. Numbers after ± are the reported error.
SRC SH3-SH2-kinase domain: Proto-oncogene tyrosine-protein kinase Src, SH3-SH2-kinase domain (SRC, Gallus gallus, UniProt P00523)
Trypanothione synthetase: Trypanothione synthetase (Trypanosoma brucei, UniProt Q586P2)
Genome polyprotein NS3 helicase domain: Genome polyprotein, NS3 helicase domain (Hepatitis C virus genotype 1b, UniProt Q9WMX2)

For `O=C(O)c1cccc(Nc2nc(-c3ccc(Cl)c(Cl)c3)cs2)c1`, the IC50 was 6.72 µM and 6.7 µM (Capsid scaffolding protein, protease domain (Human herpesvirus 8 type P, UniProt Q2HRB6); protease activity, inhibitor; added: fluorogenic peptide substrate).
`C=CCC(=N)NCCC[C@H](N)C(=O)O` gave an IC50 of 1 to 2 µM and 1.9 µM (Nos3 (Mus musculus, UniProt P70313); ACh-evoked cGMP accumulation; adult mouse aortic rings; 1 min, preincubation 25 min, added: ACh 10 µM, IBMX 1 mM).
`CC(C)C(O)C(NC(=O)[C@H](Cc1ccc(O)cc1)NC(=O)C(Cc1ccc(O)cc1)[N+](C)(C)C)C(=O)N[C@@H](C)C(=O)O` (some centres unmarked) gave an IC50 of over 10 µM (ACE (Homo sapiens, UniProt P12821); enzyme activity, inhibitor).
The IC50 of `COc1ccc(/C=C/C(=O)O[C@@H]2C[C@](C)(O)[C@H]3[C@H](O[C@@H]4O[C@H](CO)[C@@H](O)[C@H](O)[C@H]4O)OC=C[C@H]32)cc1` is reported as 46.7 µM (XDH (Bos taurus, UniProt P80457); enzyme activity, inhibitor, absorbance).
With `Cc1cc([N+](=O)[O-])cn(CC(=O)c2cc3cc(Cl)ccc3[nH]2)c1=O` the IC50 was 7 ± 0.29 µM (DNA repair protein RAD52 homolog, with RPA and ssDNA (RAD52, Homo sapiens, UniProt P43351); inhibitor, FRET).
`O=c1cc(-c2ccc(O)c(O)c2)oc2cc(O[C@@H]3O[C@H](CO)[C@@H](O)[C@H](O)[C@H]3O)cc(O)c12` has an IC50 of 0.041 µM (Dopamine beta-hydroxylase (Homo sapiens, UniProt P09172); enzyme activity, inhibitor; added: tyramine).
The IC50 of `CN1CCC[C@@H](C(=O)O)NC(=O)/C=C/C(=O)N[C@@H](CC2CCCCC2)C(=O)N[C@@H](Cc2ccc(F)cc2)C(=O)N[C@@H](Cc2ccc([N+](=O)[O-])cc2)C1=O` is reported as 0.036 ± 0.001 µM (SRC SH3-SH2-kinase domain; enzyme activity, inhibitor, Z'-LYTE FRET; Src residues 83-533, added: 50 µM ATP).
For `CC(C)NCc1ccc(C[C@@H]2NC(=O)[C@@H](Cc3c[nH]c4ccccc34)NC(=O)[C@H](Cc3ccc(O)cc3)NC(=O)[C@H](NC(=O)[C@@H](N)Cc3ccc(Cl)cc3)CSSC[C@@H](C(=O)N[C@@H](Cc3ccc4ccccc4c3)C(N)=O)NC(=O)[C@H]([C@@H](C)O)NC2=O)cc1`, the IC50 was over 1 µM (SSTR1 (Homo sapiens, UniProt P30872); ligand displacement, radioligand; cell membranes).
With `CC(C)=CCCC1=CCC2=C(C1)C(=O)c1ccccc1C2=O` the IC50 was 57.9 ± 4.1 µM (DNA topoisomerase IB (Leishmania donovani, UniProt A0A3Q8IHS4+Q8WQM6); DNA relaxation activity, inhibitor; added: supercoiled plasmid DNA).
For `CNC(=S)Nc1cccc([N+](=O)[O-])c1`, the IC50 was 300 ± 200 µM (Urea transporter 2 (Rattus norvegicus, UniProt Q62668); urea transport, inhibitor; MDCK expressing rat UT-A1; 20 min).
`NC(=O)[C@@H]1CCCNC(=O)[C@H](Cc2ccc([N+](=O)[O-])cc2)NC(=O)[C@H](Cc2ccccc2)NC(=O)[C@H](CC2CCCCC2)NC(=O)/C=C/C(=O)N1` has an IC50 of 0.006 ± 0.002 µM (SRC SH3-SH2-kinase domain; enzyme activity, inhibitor, Z'-LYTE FRET; Src residues 83-533, added: 50 µM ATP).
With `CCN(CC)CC(=O)Nc1cccc(-n2cc(-c3ccc4ccc(-c5cn(-c6cccc(NC(=O)CN(CC)CC)c6)nn5)cc4c3)nn2)c1` the IC50 was over 10 µM (kinase panel (PI3K, MAPK, mTOR); enzyme activity, inhibitor).
For `Cc1cccc(Cn2c(CN3CCN(C(=O)C4CC4)CC3)nc3c2c(=O)n(C)c(=O)n3C)c1`, the IC50 was over 57 µM (HPGD (Homo sapiens, UniProt P15428)).
The IC50 of `Nc1nc(Cl)nc2c1ncn2Cc1cccc(OCC(F)F)c1` is reported as 0.117 µM (PDE8A (Homo sapiens, UniProt O60658); enzyme activity, inhibitor, radiometric).
For `COc1cccc(Cc2c[nH]c3ncc(C(F)(F)F)cc23)c1`, the IC50 was 0.421 µM (FGFR3 (Homo sapiens, UniProt P22607); enzyme activity, inhibitor).
With `O=C(Cn1nc(C(F)(F)F)c2c1CCCC2)NCc1cccs1` the IC50 was 3.9 µM (Trypanothione synthetase; enzyme activity, inhibitor).
With `Cc1ccc(C[C@@H]2NC(=O)[C@H](Cc3ccccc3)NC(=O)[C@H](CC3CCCCC3)NC(=O)/C=C/C(=O)N[C@H](C(N)=O)CCCNC2=O)cc1` the IC50 was 0.27 ± 0.04 µM (SRC SH3-SH2-kinase domain; enzyme activity, inhibitor, Z'-LYTE FRET; Src residues 83-533, added: 50 µM ATP).
`CC[C@H]1CC[C@H]2[C@@H]3C[C@@H](O)[C@@]4(O)C[C@H](N)CC[C@]4(C)[C@H]3CC[C@]12C` has an IC50 of 122 µM (Phosphatidylinositol 3,4,5-trisphosphate 5-phosphatase 1, Ptase-C2 domains (INPP5D, Homo sapiens, UniProt Q92835); enzyme activity, inhibitor).
For `COc1c(O)cc(-c2oc3cc(O)cc(O)c3c(=O)c2O[C@@H]2O[C@@H](C)[C@H](O)[C@@H](O)[C@H]2O)cc1O`, IC50 read “negative” (alpha-glucosidase Saccharomyces cerevisiae; inhibitor).
`Cc1cc(C(=O)Nc2nc3cccc(C)c3n2[C@H]2CCCCN(C(=O)/C=C/CN(C)C)C2)ccn1` gave an IC50 of 0.01 µM (CDC2-like kinase 1 (Trypanosoma brucei brucei, UniProt Q382U0); kinase activity, inhibitor, ADP-Glo; 10 min).
`N[C@@H](Cc1ccc(O)c(-c2cc(C[C@H](N)C(=O)O)ccc2O)c1)C(=O)O` gave an IC50 of 0.011 µM (THRB (Homo sapiens, UniProt P10828); ligand displacement, radioligand; lysate).
`CCC(NC(=O)C(CC(C)C)NC(=O)CCc1ccc(C#N)cc1)C(=O)C(=O)NCc1cc(OC)cc(OC)c1` (centres unmarked) has an IC50 of 0.097 µM (Calpain-2 catalytic subunit (Capn2, Mus musculus, UniProt O08529); enzyme activity, inhibitor; mouse pons-cerebellum membranes; added: calcium 2 mM).
With `O=C(Cn1nc(C(F)(F)F)c2c1CCCC2)NC1CCCCC1` the IC50 was over 100 µM (Trypanothione synthetase; enzyme activity, inhibitor).
`Cc1cn(-c2cc(NC(=O)c3ccc(C)c(Nc4nccc(-c5cccnc5)n4)c3)cc(C(F)(F)F)c2)cn1` gave an IC50 of over 10 µM (Proto-oncogene tyrosine-protein kinase Src, autophosphorylated (SRC, Gallus gallus, UniProt P00523, Y527F); photo-crosslinking probe binding, competition with HT-1; mammalian cell lysate; activated kinase).
With `Cn1c(=O)n(CCCO)c(=O)c2c1nc(Oc1cccc(C3(C(F)(F)F)N=N3)c1)n2Cc1ccc(Cl)cc1` the IC50 was 0.0014 µM (TRPC4/TRPC1 (TRPC1/TRPC4, Homo sapiens, UniProt P48995+Q9UBN4); calcium influx, inhibitor, Fura-2; HEK T-REx expressing TRPC1/TRPC4; added: englerin A 30 nM).
The IC50 of `Cc1ccc2nc(-c3ccc(N)cc3)sc2c1S(=O)(=O)O` is reported as 70 ± 31 µM (Genome polyprotein NS3 helicase domain; helicase activity, inhibitor, MBHA).
For `[2H]c1c(NS(C)(=O)=O)c([2H])c2c(C(=O)c3ccc(OCCCN(CCCC)CCCC)cc3)c(CCCC)oc2c1[2H]`, the IC50 was 80.4 µM (NADH dehydrogenase complex I (Rattus norvegicus, UniProt A6K8N6+P03889+Q641Y2); oxygen consumption rate; isolated rat heart mitochondria; added: NADH).
`N#C/C(=C\c1ccc(O)c(O)c1)C(=O)c1ccc(O)c(O)c1` has an IC50 of 3.6 ± 0.2 µM (Genome polyprotein NS3 helicase domain; DNA binding, fluorescence polarization; added: Cy5-dT15 DNA 5 nM).
`O=C([O-])CN1CCN(CC(=O)[O-])CCN(CC(=O)NCC2CCC(C(=O)NC(Cc3ccc4ccccc4c3)C(=O)NCCCCC(NC(=O)NC(CCC(=O)O)C(=O)O)C(=O)O)CC2)CCN(CC(=O)[O-])CC1.[Sc+3]` (centres unmarked) has an IC50 of 0.00472 µM (FOLH1 (Homo sapiens, UniProt Q04609); ligand displacement, radioligand).
`Cc1ccccc1-c1cc(N2CCN(C(=O)CCC(=O)O)CC2)ccc1N(C)C(=O)C(C)(C)c1cc(C(F)(F)F)cc(C(F)(F)F)c1` has an IC50 of 0.178 µM (TACR1 (Homo sapiens, UniProt P25103); IP1 accumulation, antagonist, HTRF; 90 min preincubation, added: substance P 10 nM).
With `NS(=O)(=O)c1ccc(N2N=C(C(F)(F)F)C(O)C2c2ccc(F)cc2F)cc1` (centres unmarked) the IC50 was over 100 µM (Cyclooxygenase-2 (Canis lupus familiaris, UniProt Q8SPQ9); PGE2 formation, inhibitor; dog whole blood; 24 h, 37 °C, added: LPS).
For `CCCCn1c(NN)nc2ccc(C)cc2c1=O`, the IC50 was 23.4 µM (Genome polyprotein, protease (Hepatitis C virus genotype 1b, UniProt O92972); enzyme activity, inhibitor, FRET).

Some of these lines once more:
`CC[C@H]1CC[C@H]2[C@@H]3C[C@@H](O)[C@@]4(O)C[C@H](N)CC[C@]4(C)[C@H]3CC[C@]12C` has an IC50 of 122 µM (Phosphatidylinositol 3,4,5-trisphosphate 5-phosphatase 1, Ptase-C2 domains (INPP5D, Homo sapiens, UniProt Q92835); enzyme activity, inhibitor).
For `COc1c(O)cc(-c2oc3cc(O)cc(O)c3c(=O)c2O[C@@H]2O[C@@H](C)[C@H](O)[C@@H](O)[C@H]2O)cc1O`, IC50 read “negative” (alpha-glucosidase Saccharomyces cerevisiae; inhibitor).
`Cc1cc(C(=O)Nc2nc3cccc(C)c3n2[C@H]2CCCCN(C(=O)/C=C/CN(C)C)C2)ccn1` gave an IC50 of 0.01 µM (CDC2-like kinase 1 (Trypanosoma brucei brucei, UniProt Q382U0); kinase activity, inhibitor, ADP-Glo; 10 min).
